Values quoted from earlier work, collected from citations in different studies.
Each line is one published result; not all experiments were run side by side.

The IC50 of COc1ccc2c(c1)[nH]c1c(C)nccc12 is reported as 0.72 µM (human CDK9/cyclin T; kinase activity, inhibitor).
For Cc1nc2c([N+](=O)[O-])c(Cl)c(Cl)cc2n1Cc1ccc([B-]23OC(=O)C[N+]2(C)CC(=O)O3)cc1 (stereo not drawn), the IC50 was 0.047 µM (dCTPase DCTPP1; inhibitor).
The IC50 of C[C@@](O)(/C=C/[C@H]1CC=CC(=O)O1)[C@@H](C[C@@H](O)\C=C/C=C\C=C\CO)OP(=O)(O)O is reported as 50 to 70 µM (protein phosphatase 1 catalytic subunit; inhibitor; concentration not given).
Cc1noc2c1-c1ccccc1C(c1ccc(Cl)cc1)=N[C@H]2CC(N)=O gave an IC50 of 0.025 µM (BRD2; inhibitor).
The IC50 of CC12C(=O)OC(=O)C1(C)C1CCC2O1 (stereo not drawn) is reported as 0.2 to 8 µM (protein phosphatase 2A catalytic subunit; enzyme activity, inhibitor).
For CSCC[C@@H]1NC(=O)[C@@H]2CCCN2C(=O)[C@H](CCCNC(=N)N)NC(=O)[C@H](CCCCN)NC(=O)[C@H](CCC(=O)O)NC(=O)[C@H](Cc2ccc(O)cc2)NC(=O)[C@H](CO)NC(=O)[C@@H](N)CSSC[C@@H](C(=O)O)NC1=O, the IC50 was 450 µM (FtsZ; GTPase activity, inhibitor).
CC[C@@H](C)[C@@H](NC(=O)[C@@H](Cc1c[nH]c2ccccc12)NC(=O)[C@@H](CCCNC(=N)N)NC(=O)[C@H](CCC(N)=O)NC(=O)[C@@H]1CCCN1C(=O)[C@H](CCCNC(=N)N)NC(=O)[C@H](CCCNC(=N)N)NC(=O)[C@H](CCCNC(=N)N)NC(=O)[C@H](CCC(N)=O)NC(=O)[C@H](CCCNC(=N)N)NC(=O)[C@H](CCCNC(=N)N)NC(=O)[C@H](CCCCN)NC(=O)[C@H](CCCCN)NC(=O)[C@H](CCCNC(=N)N)NC(=O)CN)C(=O)N[C@H](CCSC)C(=O)N[C@H](Cc1ccc(O)cc1)C(=O)N[C@H](Cc1ccccc1)C(N)=O has an IC50 of 6 µM (CDK6/cyclin D3).
O=C(N[C@H](CO)[C@H](O)c1ccc([N+](=O)[O-])cc1)C(Cl)Cl gave an IC50 of 7.4 µM (mitochondrial ribosome; inhibitor).
CC(C)[C@H](NC(=O)[C@H](CCCNC(=N)N)NC(=O)N[C@@H](Cc1ccccc1)C(=O)O)C(=O)N[C@H](C=O)CCCNC(=N)N has an IC50 of 200 µM (CTSD).
With NC(=O)c1ncn([C@@H]2O[C@H](CO)[C@@H](O)[C@H]2O)n1 the IC50 was 0.1 to 0.25 µM (IMPDH2; inhibitor; concentration not given).
With C[C@@H]1CN(c2ncc(C(O)CO)cc2Cl)CCN1c1nc2c(-c3cc(F)c(F)c(F)c3)cc(C(F)(F)F)cc2[nH]1 (stereo partly drawn) the IC50 was 0.0009 µM (TRPV1 (rat); antagonist, cell-based; together with: capsaicin).
For CO/C1=C\C(C)=C\[C@@H](C)[C@@H](O)[C@@H](C)C/C(C)=C/C=C/[C@H](OC)[C@@H]([C@@H](C)[C@@H](O)[C@H](C)[C@@]2(O)C[C@@H](O)[C@H](C)[C@@H](C(C)C)O2)OC1=O, the IC50 was 0.1 µM (ATP6AP1; inhibitor).
CC1=CC(=O)c2c(O)cccc2C1=O gave an IC50 of 0.085 µM (TRPV2; allosteric modulator).
C=C(C)[C@@H](CC=C(C)C)C[C@@]12C[C@@H](CC=C(C)C)C(C)(C)[C@@](CC=C(C)C)(C(=O)C(C(=O)c3ccc(O)c(O)c3)=C1O)C2=O has an IC50 of about 5 µM (histone acetyltransferases).
With CO[C@@H]1[C@H](O)[C@@H](COP(=O)(O)OP(=O)(O)OP(=O)(O)O)O[C@H]1n1cnc2c(N)ncnc21 the IC50 was 50 µM (HCV NS5B polymerase; inhibitor).

Repeated from above:
The IC50 of C[C@@](O)(/C=C/[C@H]1CC=CC(=O)O1)[C@@H](C[C@@H](O)\C=C/C=C\C=C\CO)OP(=O)(O)O is reported as 50 to 70 µM (protein phosphatase 1 catalytic subunit; inhibitor; concentration not given).
C=C(C)[C@@H](CC=C(C)C)C[C@@]12C[C@@H](CC=C(C)C)C(C)(C)[C@@](CC=C(C)C)(C(=O)C(C(=O)c3ccc(O)c(O)c3)=C1O)C2=O has an IC50 of about 5 µM (histone acetyltransferases).
